{"data": "Published values gathered from unrelated publications", "note": "A part holds a random share of what one study measured. Values joined by “and” are separate records of one study, mostly repeats; a detail may differ."}
{"data": "Set 1", "Structure (SMILES)": "Cc1ncsc1-c1ccc(C(CO)NC(=O)C2CC(O)CN2C(=O)C(C(C)C)n2cc(-c3ccc(COc4c(-c5c(C)c(F)cc6[nH]ncc56)c(C5CC5)cc5c(N6CC7CC6CN7)nc(OC6CCOCC6)nc45)cc3)nn2)cc1 (centres unmarked)", "method": "qRT-PCR", "species": "mouse, PK-59 xenograft", "sample": "tumour", "dose": "30 mg/kg", "setting": "unit not given"}
{"refers to": "MYC", "route": "intravenous", "time": "6 h", "baseline": "vehicle, same time point", "mRNA level": "0.0323 and 0.0306 and 0.0288"}
{"refers to": "MYC", "time": "48 h", "baseline": "vehicle", "mRNA level": 0.153}
{"refers to": "MYC", "route": "intravenous", "time": "48 h", "baseline": "vehicle, same time point", "mRNA level": 0.0101}
{"refers to": "SPRY4", "time": "48 h", "baseline": "vehicle", "mRNA level": "0.033 and 0.0334 and 0.06 and 0.0599"}
{"data": "Set 2", "Compound": "C[C@@H]1CN(c2ccc(-c3cc(C(=O)NCCOCCOCCOCCOCCNC(=O)/C=C/c4[nH]cc(C(=O)N[C@@H](CC(N)=O)c5ccc(F)c(Cl)c5)c4-c4ccc(Cl)cc4F)ccc3F)cc2NC(=O)c2c[nH]c(=O)cc2C(F)(F)F)C[C@H](C)N1C", "observed": "thermal unfolding", "method": "differential scanning fluorimetry", "concentration": "5.5 µM", "direction": "higher = more unfolded", "DCAF1": "DDB1- and CUL4-associated factor 1 (DCAF1, Homo sapiens, UniProt Q9Y4B6)", "WDR5": "WD repeat-containing protein 5 (WDR5, Homo sapiens, UniProt P61964)", "chain of UniProt Q9Y4B6 (whole entry, looked up)": "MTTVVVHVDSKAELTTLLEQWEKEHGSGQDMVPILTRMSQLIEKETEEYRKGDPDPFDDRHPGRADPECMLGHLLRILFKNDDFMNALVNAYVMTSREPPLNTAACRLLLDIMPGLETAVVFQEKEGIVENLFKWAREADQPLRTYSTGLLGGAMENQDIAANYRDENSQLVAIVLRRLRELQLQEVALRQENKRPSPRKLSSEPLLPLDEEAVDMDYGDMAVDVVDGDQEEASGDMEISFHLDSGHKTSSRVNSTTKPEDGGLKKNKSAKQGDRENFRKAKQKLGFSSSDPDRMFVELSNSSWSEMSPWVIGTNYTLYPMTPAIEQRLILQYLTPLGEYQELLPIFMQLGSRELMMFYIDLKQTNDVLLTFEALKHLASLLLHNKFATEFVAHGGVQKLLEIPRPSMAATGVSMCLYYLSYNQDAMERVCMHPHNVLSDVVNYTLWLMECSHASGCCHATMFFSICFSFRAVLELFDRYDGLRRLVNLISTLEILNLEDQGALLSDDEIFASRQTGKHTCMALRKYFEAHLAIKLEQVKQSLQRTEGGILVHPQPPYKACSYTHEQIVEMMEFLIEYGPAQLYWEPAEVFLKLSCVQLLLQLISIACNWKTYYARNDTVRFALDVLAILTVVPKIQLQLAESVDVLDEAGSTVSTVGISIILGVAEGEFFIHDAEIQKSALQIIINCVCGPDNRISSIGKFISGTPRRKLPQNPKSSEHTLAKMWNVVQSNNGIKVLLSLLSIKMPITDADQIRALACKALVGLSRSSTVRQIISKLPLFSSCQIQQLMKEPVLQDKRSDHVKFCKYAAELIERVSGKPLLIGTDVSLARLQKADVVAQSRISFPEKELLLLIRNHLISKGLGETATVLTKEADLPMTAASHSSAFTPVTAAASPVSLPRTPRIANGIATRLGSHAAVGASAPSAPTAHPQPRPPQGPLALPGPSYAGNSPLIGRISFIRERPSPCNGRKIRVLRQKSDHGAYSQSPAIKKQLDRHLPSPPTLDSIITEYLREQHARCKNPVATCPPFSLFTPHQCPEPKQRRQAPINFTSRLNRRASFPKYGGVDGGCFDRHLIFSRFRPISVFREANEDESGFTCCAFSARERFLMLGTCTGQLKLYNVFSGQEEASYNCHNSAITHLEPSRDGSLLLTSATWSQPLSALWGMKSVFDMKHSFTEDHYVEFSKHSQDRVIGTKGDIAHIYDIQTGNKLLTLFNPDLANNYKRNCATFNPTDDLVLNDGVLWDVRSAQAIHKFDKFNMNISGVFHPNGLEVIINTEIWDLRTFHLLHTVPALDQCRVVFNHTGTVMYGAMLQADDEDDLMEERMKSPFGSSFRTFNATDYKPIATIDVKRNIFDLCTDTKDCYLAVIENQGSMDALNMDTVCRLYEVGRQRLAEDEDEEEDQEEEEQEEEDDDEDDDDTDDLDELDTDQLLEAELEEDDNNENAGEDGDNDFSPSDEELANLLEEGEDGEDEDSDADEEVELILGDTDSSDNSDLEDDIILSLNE"}
{"target": "DCAF1", "temperature": "50.2 °C", "SYPRO Orange fluorescence": "15300 a.u."}
{"target": "DCAF1", "temperature": "69.81 °C", "SYPRO Orange fluorescence": "56100 a.u."}
{"target": "WDR5", "temperature": "75.41 °C", "SYPRO Orange fluorescence": "26800 a.u."}
{"target": "WDR5", "temperature": "72.21 °C", "SYPRO Orange fluorescence": "19800 a.u."}
{"target": "DCAF1", "temperature": "52.41 °C", "SYPRO Orange fluorescence": "17300 a.u."}
{"target": "DCAF1", "temperature": "45 °C", "SYPRO Orange fluorescence": "13000 a.u."}
{"target": "WDR5", "temperature": "91.61 °C", "SYPRO Orange fluorescence": "49000 a.u."}
{"target": "DCAF1", "temperature": "80.81 °C", "SYPRO Orange fluorescence": "44300 a.u."}
{"data": "Set 3", "SMILES": "CCN1/C(=C/C=C2\\CCCC(/C=C/C3=[N+](CC)c4ccccc4C3(C)C)=C2NCCCCCCCCN2CCC(Nc3nc4ccccc4n3Cc3ccc(F)cc3)CC2)C(C)(C)c2ccccc21", "cell line": "U-87 MG", "concentration": "concentration not given", "baseline": "DMSO"}
{"refers to": "SYT1 mRNA", "log2 fold change": 1.34}
{"refers to": "PAFAH1B3 mRNA", "log2 fold change": -1.14}
{"refers to": "SPHK1 mRNA", "log2 fold change": 0.899}
{"refers to": "RFTN1 mRNA", "log2 fold change": 1.87}
{"refers to": "CHST14 mRNA", "log2 fold change": -0.901}
{"refers to": "TRIP13 mRNA", "log2 fold change": -1.16}
{"refers to": "NUAK2 mRNA", "log2 fold change": -1.74}
{"refers to": "BRAT1 mRNA", "log2 fold change": -0.806}
{"refers to": "RORA mRNA", "log2 fold change": 1.16}
{"refers to": "KIF20B mRNA", "log2 fold change": -2.26}
{"refers to": "SEMA3C mRNA", "log2 fold change": -1.68}
{"data": "Set 4", "Structure (SMILES)": "Cc1ccc(O)c(C)c1-c1cnc2[nH]c(-c3cnc(N4CCC5(CC4)CC(N4CCN(c6ccc(N[C@H]7CCC(=O)NC7=O)cc6F)CC4)CO5)nc3)cc2c1C#N (single isomer, unassigned)"}
{"cell line": "KLE", "observed": "cell proliferation", "concentration": "10000 nM", "inhibition": "85.6%"}
{"cell line": "RKO", "observed": "cell proliferation", "concentration": "1111.11 nM", "inhibition": "18.4%"}
{"cell line": "RKO", "observed": "cell proliferation", "concentration": "4.572 nM", "inhibition": "-2.97% and 1.31%"}
{"cell line": "MDA-MB-436", "observed": "cell proliferation", "concentration": "3333.33 nM", "inhibition": "94.8%"}
{"cell line": "HCC1569", "observed": "CDK1 phosphorylation", "method": "Jess capillary immunoassay", "refers to": "CDK1 phospho-Thr14", "concentration": "100 nM", "time": "2 h", "inhibition": "35.6%"}
{"cell line": "SW1463", "observed": "cell proliferation", "concentration": "4.57 nM", "inhibition": "-1.24% and 1.06%"}
